# Experimental data collected from several papers.
# Compare with care: the assays were run in different laboratories. ± marks the error that the study gave.
# Target: ATP-dependent translocase ABCB1 (ABCB1, Homo sapiens, UniProt P08183)
# Chain of UniProt P08183 (whole entry, looked up): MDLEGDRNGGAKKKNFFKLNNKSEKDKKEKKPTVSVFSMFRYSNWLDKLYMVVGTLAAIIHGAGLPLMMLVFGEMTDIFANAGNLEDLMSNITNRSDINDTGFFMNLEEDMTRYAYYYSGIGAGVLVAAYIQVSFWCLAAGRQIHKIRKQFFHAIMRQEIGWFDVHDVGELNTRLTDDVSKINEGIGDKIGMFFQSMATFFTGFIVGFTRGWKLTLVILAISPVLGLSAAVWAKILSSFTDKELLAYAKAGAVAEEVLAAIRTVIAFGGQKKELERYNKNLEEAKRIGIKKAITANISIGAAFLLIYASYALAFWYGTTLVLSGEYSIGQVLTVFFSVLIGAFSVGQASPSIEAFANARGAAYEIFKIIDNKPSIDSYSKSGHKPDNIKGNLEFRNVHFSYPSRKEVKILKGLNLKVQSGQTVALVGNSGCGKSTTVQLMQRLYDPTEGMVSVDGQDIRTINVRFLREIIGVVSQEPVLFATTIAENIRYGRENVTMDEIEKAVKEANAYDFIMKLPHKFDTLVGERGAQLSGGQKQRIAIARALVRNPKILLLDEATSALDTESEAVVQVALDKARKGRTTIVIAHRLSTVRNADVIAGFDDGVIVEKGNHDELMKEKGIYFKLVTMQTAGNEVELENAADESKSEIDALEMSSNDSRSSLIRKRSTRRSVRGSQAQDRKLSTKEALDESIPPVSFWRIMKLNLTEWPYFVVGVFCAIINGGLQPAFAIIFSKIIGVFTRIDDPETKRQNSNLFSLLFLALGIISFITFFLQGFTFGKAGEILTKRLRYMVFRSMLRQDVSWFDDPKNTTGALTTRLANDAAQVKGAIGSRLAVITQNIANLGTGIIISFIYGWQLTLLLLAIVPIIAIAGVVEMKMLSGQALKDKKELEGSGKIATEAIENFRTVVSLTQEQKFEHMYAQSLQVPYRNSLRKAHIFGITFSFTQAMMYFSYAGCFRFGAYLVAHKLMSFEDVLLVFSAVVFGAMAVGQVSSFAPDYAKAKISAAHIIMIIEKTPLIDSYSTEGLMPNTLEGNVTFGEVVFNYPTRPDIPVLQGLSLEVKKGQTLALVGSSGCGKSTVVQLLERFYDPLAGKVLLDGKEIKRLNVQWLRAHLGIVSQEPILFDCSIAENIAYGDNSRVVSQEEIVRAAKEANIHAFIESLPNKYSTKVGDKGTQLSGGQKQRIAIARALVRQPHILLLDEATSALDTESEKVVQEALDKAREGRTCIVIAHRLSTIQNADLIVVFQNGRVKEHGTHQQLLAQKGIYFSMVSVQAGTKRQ
SMILES,assay,test system,setting,how to read,endpoint,result
CC(C)CCN(c1nc(C#N)nc(NC2COC2)n1)C(C)c1ccc(F)cc1 (stereo not shown),substrate,MDCKII-MDR1,"1 µM, 4 h",,Papp A-B,35.5 ×10⁻⁶ cm/s
OC1(C(F)(F)F)CCN(c2nc(Nc3ccnc(C(F)(F)F)c3)nc(-c3cccc(C(F)(F)F)n3)n2)C1 (stereo not shown),"transport activity, inhibitor",membrane vesicles,concentration not given,,inhibition,no inhibition
C[C@H]1C(NCCS)O[C@@H]2O[C@@]3(C)CC[C@H]4[C@H](C)CCC1[C@@]24OO3 (stereo partly shown),"calcein-AM efflux, inhibitor, flow cytometry",CEM/ADR5000,"30 min, together with: calcein-AM 1 µM",reference: untreated,maximal effect,1010 ± 106%
N#Cc1nc(N2CCOCC2)nc(N(Cc2ccc(F)cc2)CC2CCCNC2)n1 (stereo not shown),substrate,MDCKII-MDR1,"1 µM, 4 h",,Papp A-B,25.9 ×10⁻⁶ cm/s
CC(C)C(=O)Cc1c(OCC(O)C(C)(C)O)ccc2ccc(=O)oc12 (stereo not shown),"inhibitor, rhodamine 123 retention",COLO 320 and COLO 205,"2 µM, together with: rhodamine 123 5.2 µM","reference: COLO 320 over COLO 205, higher = stronger inhibition",fluorescence activity ratio,1.84
C[C@H]1C(OC(=O)c2ccccc2)O[C@@H]2O[C@@]3(C)CC[C@H]4[C@H](C)CCC1[C@@]24OO3 (stereo partly shown),"calcein-AM efflux, inhibitor, flow cytometry",CEM/ADR5000,"30 min, together with: calcein-AM 1 µM",reference: untreated,maximal effect,2640 ± 424%
COc1cc(CCOC(C)=O)cc(-c2cc(CCOC(C)=O)cc(OC)c2O)c1O,rhodamine 123 efflux,,10 µM,reference: GF120918 0.5 µM,inhibition,0.3 ± 0.6%
C[C@H]1C(OC(=O)N(C)C)O[C@@H]2O[C@@]3(C)CC[C@H]4[C@H](C)CCC1[C@@]24OO3 (stereo partly shown),"calcein-AM efflux, inhibitor, flow cytometry",CEM/ADR5000,"30 min, together with: calcein-AM 1 µM",reference: untreated,maximal effect,3340%
CC(C)=CCc1c(OCC2OC2(C)C)ccc2ccc(=O)oc12 (stereo not shown),"inhibitor, rhodamine 123 retention",COLO 320 and COLO 205,"2 µM, together with: rhodamine 123 5.2 µM","reference: COLO 320 over COLO 205, higher = stronger inhibition",fluorescence activity ratio,1.41
Cn1ccc2cc(-n3c(=O)[nH]c4sc5c(c4c3=O)CCCC5)ccc21,,MDCK-MDR1,5 µM,,Papp A→B,18 ×10⁻⁶ cm/s
CC(=O)OCCc1cc(O)c(O)c(-c2cc(CCOC(C)=O)cc(O)c2O)c1,rhodamine 123 efflux,,10 µM,reference: GF120918 0.5 µM,inhibition,0 ± 2.3%
COc1cc(/C=C/C(=O)c2ccc3c(c2)OCO3)ccc1OCc1ccccc1,"mitoxantrone efflux, flow cytometry",,10 µM,,inhibition,no inhibition
C[C@H]1C(OC(=O)C(Cl)Cl)O[C@@H]2O[C@@]3(C)CC[C@H]4[C@H](C)CCC1[C@@]24OO3 (stereo partly shown),"calcein-AM efflux, inhibitor, flow cytometry",CEM/ADR5000,"30 min, together with: calcein-AM 1 µM",reference: untreated,maximal effect,1380 ± 199%
CC(=O)OCCc1ccc(O)c(-c2cc(CCOC(C)=O)ccc2O)c1,rhodamine 123 efflux,,50 µM,reference: GF120918 0.5 µM,inhibition,-0.1 ± 1.6%
COc1cc(/C=C/C(=O)c2ccc(Br)cc2)ccc1OCc1ccccc1,"mitoxantrone efflux, flow cytometry",,10 µM,,inhibition,no inhibition
OCCc1ccc(O)c(-c2cc(CCO)ccc2O)c1,rhodamine 123 efflux,,50 µM,reference: GF120918 0.5 µM,inhibition,-0.5 ± 1.5%
C[C@H]1C(O)O[C@@H]2O[C@@]3(C)CC[C@H]4[C@H](C)CCC1[C@@]24OO3 (stereo partly shown),"calcein-AM efflux, inhibitor, flow cytometry",CEM/ADR5000,"30 min, together with: calcein-AM 1 µM",reference: untreated,maximal effect,114 ± 10.2%
COc1cc(CCOC(C)=O)cc(-c2cc(CCOC(C)=O)cc(O)c2O)c1O,rhodamine 123 efflux,,10 µM,reference: GF120918 0.5 µM,inhibition,-0.6 ± 1.4%
CC1(C)OC(=O)C[C@H](O)[C@]2(C)[C@H]3CC[C@@]4(C)[C@H](c5ccoc5)OC(=O)[C@H]5O[C@]54[C@]3(C)C(=O)C[C@@H]12,"inhibitor, rhodamine 123 retention",COLO 320 and COLO 205,"20 µM, together with: rhodamine 123 5.2 µM","reference: COLO 320 over COLO 205, higher = stronger inhibition",fluorescence activity ratio,0.78
